Measurements pooled from the literature.
Compare with care: the assays were run in different laboratories. Several values in a cell are separate wells, animals, samples, runs or records.
RPS6KA6: Ribosomal protein S6 kinase alpha-6 (RPS6KA6, Homo sapiens, UniProt Q9UK32)
EPHB2: Ephrin type-B receptor 2 (EPHB2, Homo sapiens, UniProt P29323)
lasR: Transcriptional activator protein LasR (lasR, Pseudomonas aeruginosa, UniProt P25084)

Structure (SMILES) | target | test | system | conditions | inhibition
CC(=O)NC[C@@H]1[C@@H](O)C[C@H]2[C@H](O)C[C@@H](CO)N12 | β-N-acetylglucosaminidase | enzyme activity, inhibitor, colorimetric | Canavalia ensiformis | 4.28 nM, added: p-nitrophenyl GlcNAc substrate | 26.8% and 24%
O=C(O)c1ccccc1/C=N/Nc1nc(-c2ccccc2Cl)cs1 | RPS6KA6 | enzyme activity, inhibitor |  | 1 µM | -3.61%
O=C1c2ccccc2CCCN1CCCCN1CCN(c2cccc(Cl)c2Cl)CC1 | HTR1E (Homo sapiens, UniProt P28566) | radioligand binding |  | concentration not given, added: [3H]5-HT | 65.1%
CC(C)[C@H]1NC(=O)C[C@H]2/C=C/CCSSC[C@@H](NC1=O)C(=O)N[C@H](Cc1cccc3ccccc13)C(=O)NCC(=O)O2 | EPHB2 | enzyme activity, inhibitor |  | 10 µM | -0.8%
COc1cc2c(cc1S(=O)(=O)F)C(=O)NCCC2 | Uncharacterized hydrolase SAUSA300_2518 (Staphylococcus aureus, UniProt Q2FDS6) | enzyme activity, inhibitor, fluorogenic substrate |  | 50 µM, 1 h preincubation | 8.6%
CN(C)[C@H]1C[C@@]23CC[C@@]4(O2)C(=CC[C@]2(C)[C@@H](c5ccc6ccncc6c5)CC[C@H]24)C=C3[C@@H](O)[C@@H]1O | CDK11B (Homo sapiens, UniProt P21127) | ATP probe labelling, inhibitor, KiNativ profiling |  | 1 µM | -2.2%
O=C1C=C(Br)/C(=C/Br)O1 | lasR | reporter gene, antagonist | Escherichia coli JLD271 | 10 µM, pSC11 and pJN105L plasmids, added: OdDHL 2 nM | 51%
O=C(CN1CN(c2ccccc2)C2(CCN(C(=O)c3cnc4[nH]ncc4c3)CC2)C1=O)NCC(F)(F)F | EPHB2 | inhibitor |  | concentration not given | < 50%
CN[C@@H]1[C@H](O)[C@H](NC)[C@H]2O[C@]3(O)[C@H](O[C@@H]2[C@H]1O)O[C@H](C)C[C@H]3NC(=O)Cc1cc(Cl)ccn1 | Androgen receptor (Ar, Rattus norvegicus, UniProt P15207) | ligand displacement, radioligand |  | 10 µM | -1%
C=CC(=O)Nc1cc(-c2nn(C3CCC(N4CCN(C(C)=O)CC4)CC3)c3ncnc(N)c23)ccc1Oc1ccccc1 (stereo not shown) | MTOR (Homo sapiens, UniProt P42345) | inhibitor |  | 2 µM | 8.2%
CS(C)(=O)=Nc1ccc(-c2ccc(-c3nc4cc(O[C@@H]5CO[C@H]6[C@@H]5OC[C@H]6O)[nH]c4cc3F)cc2)cc1 | RPS6KA6 | enzyme activity, inhibitor |  | 10 µM | 5%
Cc1cc(-c2ccc3ccccc3c2)nnc1NCCN1CCN(C)CC1 | PTGS1 (Homo sapiens, UniProt P23219) | enzyme activity |  | concentration not given | negative
CN(/N=C/c1ccccc1C(=O)O)c1nc(-c2ccccc2Cl)cs1 | DAPK1 (Homo sapiens, UniProt P53355) | kinase activity |  | 1 µM, mean | 9.35%
C[C@H](NCc1ccc(-c2ccc(C(F)(F)F)cc2)cc1)C(N)=O | GABAA receptor benzodiazepine site, rat hippocampus | binding, radioligand binding | biochemical | 1 µM, added: [3H]Ro 15-1788 1.0 nM | 17%
O=C(CCCCCCCCCN=C=S)CC(=O)N[C@H]1CCOC1=O | lasR | reporter gene, antagonist | Pseudomonas aeruginosa PAO-JP2 | 100 µM, plasI-LVAgfp reporter, added: OdDHL 150 nM | -74%
CCC1CC(c2ccc(C(=O)O)cc2C)=NN1c1ccc(C#N)c(Cl)c1 (stereo not shown) | Histone-lysine N-methyltransferase 2B, complex (KMT2B, Homo sapiens, UniProt Q9UMN6) | enzyme activity |  | 10 µM | 4%
O=C(CCCc1ccccc1)NC1CCOC1=O (stereo not shown) | lasR | reporter gene, antagonist | Pseudomonas aeruginosa PAO-JP2 | 100 µM, plasI-LVAgfp reporter, added: OdDHL 150 nM | 27%
N[C@H](C(=O)N1CCCC1)C1CCN(c2nccc3c(-c4ncc(Cl)cc4Cl)cccc23)CC1 | PADI2 (Homo sapiens, UniProt Q9Y2J8) | enzyme activity, GDH-coupled |  | 24 µM, added: 0.25 mM Ca2+ (low) | 99.9%
O=C(CCc1ccc(C(F)(F)F)cc1)N[C@H]1CCOC1=O | lasR | reporter gene, antagonist | Escherichia coli JLD271 | 10 µM, pSC11 and pJN105L plasmids, added: OdDHL 2 nM | -53%
O=C(O)CCn1c(=O)oc2cc(Cl)c(Cl)cc21 | KYAT1 (Homo sapiens, UniProt Q16773) | enzyme activity, inhibitor |  | 100 µM | 24.5%
CCCCCCCCCC(=O)CC(=O)NC1CCCCC1=O (stereo not shown) | lasR | reporter gene, antagonist | Escherichia coli JLD271 | 10 µM, pSC11 and pJN105L plasmids, added: OdDHL 2 nM | -96%
Cn1c(=O)[nH]c2nncnc2c1=O | USP14 (Homo sapiens, UniProt P54578) | enzyme activity, inhibitor |  | 17 µM | 92%

Repeated from above:
Structure (SMILES) | target | test | system | conditions | inhibition
O=C(CCCCCCCCCN=C=S)CC(=O)N[C@H]1CCOC1=O | lasR | reporter gene, antagonist | Pseudomonas aeruginosa PAO-JP2 | 100 µM, plasI-LVAgfp reporter, added: OdDHL 150 nM | -74%
CCC1CC(c2ccc(C(=O)O)cc2C)=NN1c1ccc(C#N)c(Cl)c1 (stereo not shown) | Histone-lysine N-methyltransferase 2B, complex (KMT2B, Homo sapiens, UniProt Q9UMN6) | enzyme activity |  | 10 µM | 4%
